{"data": "Assay results gathered from unrelated publications", "organism": "Staphylococcus aureus", "note": "Each line is one published result; not all experiments were run side by side."}
{"Compound": "CCCC/C=C/C(=O)N[C@@H](Cc1cc(F)cc(F)c1)C(=O)N[C@H]1COC(=O)[C@@H]2CCCN2C(=O)[C@H](C)NC(=O)[C@@H]2CCCCN2C(=O)[C@@H]2CCCN2C1=O", "assay": "microbial growth, broth dilution", "MIC": "0.39 µg/mL"}
{"Compound": "CCCCCC[N+](C)(C)CCCCCCCCOc1cc(OCCCCCCCC[N+](C)(C)CCCCCC)cc(OCCCCCCCC[N+](C)(C)CCCCCC)c1.[Br-].[Br-].[Br-]", "test system": "CA-MRSA USA300-0114", "MIC": "0.5 µM"}
{"Compound": "C[C@@H]1C(=O)O[C@@H](C)/C=C/C=C\\[C@@H](C)[C@@H]2C=C[C@@H]3C[C@@]4(C)O[C@H]4[C@@H](C)[C@H]3[C@@H]2C(=O)C(Cl)(Cl)C1=O", "test system": "MRSA clinical isolate", "setting": "OXA CLI ERY resistant", "MIC": "0.025 µg/mL"}
{"Compound": "CCCCCCCCCC[N+](C)(C)CCCCOc1cc(OCCCC[N+](C)(C)CCCCCCCCCC)cc(OCCCC[N+](C)(C)CCCCCCCCCC)c1.[Br-].[Br-].[Br-]", "test system": "HA-MRSA ATCC 33591", "MIC": "1 µM"}
{"Compound": "CC(C)C[C@H]1NC(=O)[C@H](Cc2c[nH]c3ccccc23)NC(=O)[C@@H](C(C)C)NC(=O)[C@@H]2CSC(N2)[C@H](C(C)C)NC(=O)[C@@H](Cc2c[nH]c3ccccc23)NC(=O)[C@H](C(C)C)NC1=O", "test system": "NCTC 8325, Mueller Hinton broth", "setting": "21 h, 37 °C", "MIC": "3.1 µg/mL"}
{"Compound": "N=C(N)NCCC[C@@H]1NC(=O)[C@H](CCCNC(=N)N)NC(=O)[C@H](CCCNC(=N)N)NC(=O)[C@@H](CCCNC(=N)N)NC(=O)[C@H](Cc2ccc3ccccc3c2)NC(=O)[C@H](Cc2ccc3ccccc3c2)NC(=O)[C@H](Cc2ccc3ccccc3c2)NC1=O", "test system": "ATCC 29213, MSSA", "MIC": "4 µg/mL"}
{"Compound": "CCCCCCn1cc[n+](CCCCCCCCOc2cc(OCCCCCCCC[n+]3ccn(CCCCCC)c3)cc(OCCCCCCCC[n+]3ccn(CCCCCC)c3)c2)c1.[Br-].[Br-].[Br-]", "test system": "HA-MRSA ATCC 33591", "MIC": "1 µM"}
{"Compound": "CCCCCCCCCC(=O)Oc1c(C)c(OC)c2c(/C=C/c3ccccc3)c(CCCCCCCC)c(=O)oc2c1C", "assay": "microbial growth, broth dilution", "test system": "ATCC25923", "MIC": "5000 µg/mL"}
{"Compound": "CCC(CC)c1cc(CCN2CCCN(C(=O)OC(C)(C)C)CC2)nc(-c2ccccn2)n1", "assay": "microbial growth, broth dilution", "test system": "ATCC29213", "MIC": "> 16 µg/mL"}
{"Compound": "CC[C@H]1OC(=O)[C@H](C)[C@@H](OC(=O)Cc2ccc(C(F)(F)F)cc2)[C@H](C)[C@@H](O[C@@H]2O[C@H](C)C[C@H](N(C)C)[C@H]2O)[C@](C)(OC)C[C@@H](C)C(=O)[C@H](C)[C@@H](O)[C@]1(C)O", "test system": "DSM 20231 MSSA", "MIC": "4 µg/mL"}
{"Compound": "C#CCNC(=O)[C@H]1NC(=O)[C@H]2NC(=O)[C@H](NC(=O)[C@@H]3NC(=O)[C@H](CC(N)=O)NC(=O)[C@H](NC(=O)[C@@H](CC(C)C)NC)[C@H](O)c4ccc(c(Cl)c4)Oc4cc3cc(c4O[C@@H]3O[C@H](CO)[C@@H](O)[C@H](O)[C@H]3O[C@H]3C[C@](C)(N)[C@H](O)[C@H](C)O3)Oc3ccc(cc3Cl)[C@H]2O)c2ccc(O)c(c2)-c2c(O)cc(O)cc21", "assay": "broth microdilution", "test system": "MRSA USA300, cation-adjusted Mueller-Hinton broth", "setting": "20 to 24 h, 37 °C, 0.002% polysorbate 80", "MIC": "0.5 µg/mL"}
{"Compound": "CC[C@H]1OC(=O)[C@H](C)[C@@H](OC(=O)Cc2c(F)cc([N+](=O)[O-])cc2F)[C@H](C)[C@@H](O[C@@H]2O[C@H](C)C[C@H](N(C)C)[C@H]2O)[C@](C)(OC)C[C@@H](C)C(=O)[C@H](C)[C@@H](O)[C@]1(C)O", "test system": "ATCC 43300 MRSA", "MIC": "128 µg/mL"}
{"Compound": "CCOc1c(NC(=O)c2ccc(NC(=O)c3ccc(NC(=O)[C@H](Cc4c[nH]nn4)NC(=O)c4ccc(NC(=O)/C(C)=C/c5ccc(O)cc5)cc4)cc3)c(OCC)c2O)ccc(C(=O)O)c1O", "assay": "broth microdilution", "test system": "ciprofloxacin-sensitive", "MIC": "0.031 µg/mL"}
{"Compound": "CCCCCCCCCC[N+](C)(C)CCCCCCCCCCOc1cc(OCCCCCCCCCC[N+](C)(C)CCCCCCCCCC)cc(OCCCCCCCCCC[N+](C)(C)CCCCCCCCCC)c1.[Br-].[Br-].[Br-]", "test system": "CA-MRSA USA300-0114", "MIC": "8 µM"}
{"Compound": "COc1c(C)c(OCc2ccccc2)c(C)c(OCc2ccccc2)c1C(=O)/C=C/c1ccccc1", "assay": "microbial growth, broth dilution", "test system": "ATCC25923", "MIC": "5000 µg/mL"}
{"Compound": "CCCCCCCCCCCC[N+](C)(C)CCCCCCOc1cc(OCCCCCC[N+](C)(C)CCCCCCCCCCCC)cc(OCCCCCC[N+](C)(C)CCCCCCCCCCCC)c1.[Br-].[Br-].[Br-]", "test system": "HA-MRSA ATCC 33591", "MIC": "16 µM"}
{"Compound": "CN[C@H](CC(C)C)C(=O)N[C@H]1C(=O)N[C@@H](CC(N)=O)C(=O)N[C@H]2C(=O)N[C@H]3C(=O)N[C@H](C(=O)N[C@H](C(=O)O)c4cc(O)cc(O)c4-c4cc3ccc4O)[C@H](O)c3ccc(c(Cl)c3)Oc3cc2cc(c3O[C@@H]2O[C@H](CO)[C@@H](O)[C@H](O)[C@H]2O[C@H]2C[C@](C)(N)[C@H](O)[C@H](C)O2)Oc2ccc(cc2Cl)[C@H]1O", "assay": "microbial growth, broth dilution", "test system": "29213", "MIC": "< 1 µM"}
{"Compound": "CC[C@H]1OC(=O)[C@H](C)[C@@H](OC(=O)Cc2ccc(Cl)cc2)[C@H](C)[C@@H](O[C@@H]2O[C@H](C)C[C@H](N(C)C)[C@H]2O)[C@](C)(OC)C[C@@H](C)C(=O)[C@H](C)[C@@H](O)[C@]1(C)O", "test system": "ATCC 43300 MRSA", "MIC": "> 128 µg/mL"}
{"Compound": "Oc1c(Br)cc(Br)c2nc3cc(Cc4ccccc4)ccc3nc12", "test system": "147 MRSA clinical isolate", "MIC": "0.39 µM"}
{"Compound": "CC(C)C/C=C/C=C\\C(=O)N[C@@H](CC(N)=O)C(=O)N[C@@H]1C(=O)N[C@H](c2ccc(O)cc2)C(=O)N[C@H](CCCN)C(=O)N[C@H]([C@@H](C)O)C(=O)N[C@@H](c2ccc(O)cc2)C(=O)N[C@H](c2ccc(O)cc2)C(=O)N[C@@H]([C@H](C)O)C(=O)N[C@@H](Cc2ccccc2)C(=O)N[C@H](CCCN)C(=O)N[C@@H](c2ccc(O[C@H]3O[C@H](CO)[C@@H](O)[C@H](O)[C@@H]3O[C@H]3O[C@H](CO)[C@@H](O)[C@H](O)[C@@H]3O)cc2)C(=O)N[C@H]([C@@H](C)O)C(=O)N[C@@H](c2ccc(O)cc2)C(=O)NCC(=O)N[C@@H](CC(C)C)C(=O)N[C@H](C)C(=O)N[C@@H](c2ccc(O)c(Cl)c2)C(=O)O[C@@H]1C(N)=O", "test system": "MSSA ATCC 29213", "MIC": "1 µM"}
{"Compound": "COc1cc(C(=O)Nc2ccc(C(=O)O)c(O)c2OC)ccc1NC(=O)c1ccc(NC(=O)[C@H](Cc2c[nH]nn2)NC(=O)c2ccc(NC(=O)/C(C)=C/c3ccc(O)cc3)cc2)cc1", "assay": "broth microdilution", "test system": "ciprofloxacin-resistant", "MIC": "16 µg/mL"}
{"Compound": "CCCCCCCC[C@H](NC(=O)[C@@H]1CSC([C@@H](N)[C@@H](C)CC)=N1)C(=O)N[C@H](CCC(=O)O)C(=O)N[C@H](C(=O)N[C@H]1CCCCNC(=O)[C@H](CC(N)=O)NC(=O)[C@@H](CC(=O)O)NC(=O)[C@H](Cc2c[nH]cn2)NC(=O)[C@@H](Cc2ccccc2)NC(=O)[C@H]([C@@H](C)CC)NC(=O)[C@@H](CCCN)NC1=O)[C@@H](C)CC", "test system": "ATCC 29213", "setting": "added: EDTA 0.3 mM", "MIC": "16 µg/mL"}
{"Compound": "CCn1cc(/C=C/c2ccc3ccccc3[n+]2CC)c2ccccc21", "test system": "1466", "MIC": "4 µg/mL"}
{"Compound": "CCCCCCCCn1cc[n+](CCCCOc2cc(OCCCC[n+]3ccn(CCCCCCCC)c3)cc(OCCCC[n+]3ccn(CCCCCCCC)c3)c2)c1.[Br-].[Br-].[Br-]", "test system": "SH1000 MSSA", "MIC": "0.5 µM"}
{"Compound": "CCOc1c(NC(=O)c2ccc(NC(=O)[C@H](Cc3c[nH]nn3)NC(=O)c3ccc(NC(=O)/C(C)=C/c4ccc(O)cc4)cc3)cc2)ccc(C(=O)Nc2ccc(C(=O)O)c(O)c2OC)c1O", "assay": "broth microdilution", "test system": "ciprofloxacin-sensitive", "MIC": "0.063 µg/mL"}
{"Compound": "CC[C@H]1OC(=O)[C@H](C)[C@@H](OC(=O)Cc2ccccc2Cl)[C@H](C)[C@@H](O[C@@H]2O[C@H](C)C[C@H](N(C)C)[C@H]2O)[C@](C)(OC)C[C@@H](C)C(=O)[C@H](C)[C@@H](O)[C@]1(C)O", "test system": "ATCC 43300 MRSA", "MIC": "> 64 µg/mL"}
{"note": "Repeated from above:"}
{"Compound": "CC(C)C[C@H]1NC(=O)[C@H](Cc2c[nH]c3ccccc23)NC(=O)[C@@H](C(C)C)NC(=O)[C@@H]2CSC(N2)[C@H](C(C)C)NC(=O)[C@@H](Cc2c[nH]c3ccccc23)NC(=O)[C@H](C(C)C)NC1=O", "test system": "NCTC 8325, Mueller Hinton broth", "setting": "21 h, 37 °C", "MIC": "3.1 µg/mL"}
